Assay results pooled from the literature.
Each line is one published result; not all experiments were run side by side.
Organism: Klebsiella pneumoniae

For `O=C(O)C[C@@H]1CC[C@H](NC(=O)Cc2cccs2)B(O)O1`, the MIC was > 128 µg/mL (ATCC 700603 ESBL; compound alone).
`CC[C@H]1OC(=O)[C@H](C)[C@@H](O[C@H]2C[C@@](C)(OC)[C@@H](O)[C@H](C)O2)[C@H](C)[C@@H](O[C@@H]2O[C@H](C)C[C@H](N(C)C)[C@H]2O)[C@](C)(O)C[C@@H](C)CN(C)[C@H](C)[C@@H](O)[C@]1(C)O` gave an MIC of > 64 µg/mL (broth microdilution; BNCC 359393).
`Cc1c(CN(C)C(=O)/C=C/c2cnc3c(c2)CC(NC(=O)OC(C)(C)C)C(=O)N3)oc2ccccc12` (stereo not drawn) has an MIC of > 32 µg/mL (broth microdilution; AR-0066).
`CNC(C)C1CCC(N)C(OC2C(N)CC(N)C(OC3OCC(C)(O)C(NC)C3O)C2O)O1` (stereo not drawn) gave an MIC of 12.5 µM (9904, RPMI 1640 10% FBS; 18 to 24 h, 37 °C).
`NC[C@H]1O[C@H](O[C@H]2[C@H](O)[C@@H](O[C@H]3O[C@H](CO)[C@@H](O)[C@H](N)[C@H]3O)[C@H](N)C[C@@H]2N)[C@H](O)[C@@H](O)[C@@H]1O` gave an MIC of 1.72 µM (broth microdilution; ATCC 43816).
The MIC of `CC(C)C[C@@H]1NC(=O)[C@@H](Cc2ccccc2)NC(=O)[C@H](CCN)NC(=O)[C@@H](NC(=O)[C@H](CCN)NC(=O)[C@@H](N)[C@@H](C)O)CCNC(=O)[C@H]([C@@H](C)O)NC(=O)[C@H](CCN)NC(=O)[C@H](CCN)NC1=O` is reported as 3.13 µg/mL (ATCC 13883; in combination, checkerboard, together with: rifampicin).
`CN(C)c1ccc(O)c2c1C[C@H]1C[C@H]3[C@H](N(C)C)C(O)=C(C(N)=O)C(=O)[C@@]3(O)C(O)=C1C2=O` has an MIC of 8 µg/mL (broth microdilution; NCTC 13438; 24 h, ambient air).
`CN(C)[C@@H]1C(O)=C(C(N)=O)C(=O)[C@@]2(O)C(O)=C3C(=O)c4c(O)cccc4[C@@](C)(O)[C@H]3C[C@@H]12` gave an MIC of 2 µg/mL (broth microdilution; ATCC 43816 acrAB knockout).
With `C[C@@H](O)[C@H]1C(=O)N2C(C(=O)O)=C(S[C@@H]3CN[C@H](C(=O)N(C)C)C3)[C@H](C)[C@H]12` the MIC was > 512 µg/mL (ALE CTX-M-15, Mueller Hinton broth; overnight, 37 °C).
`C[C@@H](O)[C@H]1C(=O)N2C(C(=O)O)=C(S[C@@H]3CN[C@H](C(=O)N(C)C)C3)[C@H](C)[C@H]12` gave an MIC of < 2 µg/mL (11228).
`NC(=O)[C@@H]1CC[C@@H]2CN1C(=O)N2OS(=O)(=O)O` has an MIC of 16 µg/mL (17-15 ESBL; compound alone).
`NC[C@H]1O[C@H](O[C@H]2[C@H](O)[C@@H](O[C@H]3O[C@H](CO)[C@@H](O)[C@H](N)[C@H]3O)[C@H](N)C[C@@H]2N)[C@H](N)C[C@@H]1O` gave an MIC of 16 µg/mL (broth microdilution; NCTC 13438; 24 h, ambient air).
`COc1ccc(CNc2ccc(C(=O)O)cc2)cc1OC` has an MIC of 64 µg/mL (broth microdilution).
For `CC1(C)S[C@@H]2[C@H](NC(=O)[C@H](N)c3ccccc3)C(=O)N2[C@H]1C(=O)O`, the MIC was 4 µg/mL (ALE CTX-M-15, Mueller Hinton broth; overnight, 37 °C).
With `CC(C)(O/N=C(\C(=O)N[C@@H]1C(=O)N2C(C(=O)[O-])=C(C[n+]3ccccc3)CS[C@H]12)c1csc(N)n1)C(=O)O` the MIC was 512 µg/mL (broth microdilution; NCTC 13438; 24 h, 5% CO2).
For `O=C(Cc1ccccc1)N[C@@H]1C(=O)N2C(C(=O)O)=C(CSc3cccc4cccnc34)CS[C@H]12`, the MIC was 32 µg/mL (11228).
With `Cc1c(CN(C)C(=O)/C=C/c2cnc3c(c2)CC(CCN)C(=O)N3)oc2ccccc12.Cl` (stereo not drawn) the MIC was 8 µg/mL (broth microdilution; AR-0347).
With `CC1(C)S[C@@H]2[C@H](NC(=O)[C@H](N)c3ccc(O)cc3)C(=O)N2[C@H]1C(=O)O` the MIC was 16 µg/mL (broth microdilution).
`c1ccc2[nH]c(CNCC34CC5CC(CC(C5)C3)C4)nc2c1` has an MIC of > 128 µg/mL (ATCC 700603).
With `CNC(C)C1CCC(N)C(OC2C(N)CC(N)C(OC3OCC(C)(O)C(NC)C3O)C2O)O1` (stereo not drawn) the MIC was 0.25 µg/mL (bacterial growth; ESBL clinical isolate JMI 1052654).
For `C[C@H]1COc2c(N3CCN(C)CC3)c(F)cc3c(=O)c(C(=O)O)cn1c23`, the MIC was 64 µg/mL (broth microdilution; NCTC 13438; 24 h, ambient air).
`C[C@]1(Cn2ccnn2)[C@H](C(=O)O)N2C(=O)C[C@H]2S1(=O)=O` has an MIC of 128 µg/mL (ATCC 700603 ESBL; compound alone).
For `Cc1onc(-c2ccccc2)c1C(=O)N[C@@H]1C(=O)N2[C@@H]1SC(C)(C)[C@@H]2C(=O)O`, the MIC was > 512 µg/mL (DOU CTX-M-15, Mueller Hinton broth; overnight, 37 °C).
With `COc1cccc(CNc2ccc(C(=O)O)cc2)c1OC` the MIC was 64 µg/mL (broth microdilution).
`NC[C@H]1O[C@H](O[C@H]2[C@H](O)[C@@H](O[C@H]3O[C@H](CO)[C@@H](O)[C@H](N)[C@H]3O)[C@H](N)C[C@@H]2N)[C@H](O)[C@@H](O)[C@@H]1O` gave an MIC of 16 µg/mL (broth microdilution; KP; 18 h).
`C[C@@H](O)[C@H]1C(=O)N2C(C(=O)O)=C(S[C@@H]3CN[C@H](C(=O)N(C)C)C3)[C@H](C)[C@H]12` has an MIC of < 0.5 µg/mL (broth microdilution; ATCC 43816 acrAB knockout).
`CN[C@@H]1[C@@H](O[C@H]2O[C@H](CO)[C@@H](N)[C@H](O)[C@H]2O)OC2C[C@@H](N)[C@@H](O[C@H]3[C@H](O)[C@@H](O)[C@H](N)C[C@@H]3N)OC2[C@@H]1O` (stereo partly drawn) has an MIC of 4 µg/mL (broth microdilution; NCTC 13438; 24 h, 5% CO2).
For `C[C@@H](O)[C@H]1C(=O)N2C(C(=O)O)=C(SCCN=CN)C[C@H]12`, the MIC was > 64 µg/mL (broth microdilution; BNCC 359393).
With `CN(C)[C@@H]1C(O)=C(C(N)=O)C(=O)[C@@]2(O)C(O)=C3C(=O)c4c(O)cccc4[C@@](C)(O)[C@H]3C[C@@H]12` the MIC was 1000 µM (ATCC BAA-2146).
`CN(C)[C@@H]1C(O)=C(C(N)=O)C(=O)[C@@]2(O)C(O)=C3C(=O)c4c(O)cccc4[C@@](C)(O)[C@H]3C[C@@H]12` gave an MIC of 8 µg/mL (broth microdilution; NCTC 13438; 24 h, ambient air).
The MIC of `N=C(N)c1ccc(OCc2cccc(COc3ccc(C(=N)N)cc3)c2)cc1` is reported as > 200 µg/mL (ATCC 13883; compound alone).
The MIC of `CC[C@H](C)CCCCC(=O)N[C@@H](CCN)C(=O)N[C@H](C(=O)N[C@@H](CCN)C(=O)N[C@H]1CCNC(=O)[C@H]([C@@H](C)O)NC(=O)[C@H](CCN)NC(=O)[C@H](CCN)NC(=O)[C@H](CC(C)C)NC(=O)[C@@H](CC(C)C)NC(=O)[C@H](CCN)NC1=O)[C@@H](C)O` is reported as 0.5 µg/mL (broth microdilution; ATCC 13883, cation-adjusted Mueller-Hinton broth; 18 to 20 h, 37 °C, 0.002% polysorbate 80).
`COc1cc(CNc2ccc(C(=O)O)cc2)ccc1O` gave an MIC of 64 µg/mL (broth microdilution).
`CO/N=C(\C(=O)N[C@@H]1C(=O)N2C(C(=O)O)=C(COC(C)=O)CS[C@H]12)c1csc(N)n1` gave an MIC of 256 µg/mL (broth microdilution; NCTC 13438; 24 h, 5% CO2).
`O=C(O)c1ccc(NCc2cccc(O)c2)cc1` has an MIC of 64 µg/mL (broth microdilution).
The MIC of `C[C@H]1COc2c(N3CCN(C)CC3)c(F)cc3c(=O)c(C(=O)O)cn1c23` is reported as < 0.5 µg/mL (broth microdilution; ATCC 43816 acrAB knockout).
The MIC of `CC1(C)S[C@@H]2[C@H](NC(=O)[C@H](N)c3ccc(O)cc3)C(=O)N2[C@H]1C(=O)O` is reported as > 400 µM (broth microdilution; clinical isolate, Mueller-Hinton broth; 24 h, 37 °C).
For `Cc1c(CN(C)C(=O)/C=C/c2cnc3c(c2)CCC(=O)N3)oc2ccccc12`, the MIC was 16 µg/mL (broth microdilution; AR-0034).
The MIC of `CC(C)(CN)CNCc1nc2ccccc2n1CCOc1ccccc1` is reported as 64 µg/mL (ATCC 700603).
For `N=C(N)c1ccc(OCc2ccc(-c3ccccc3)cc2COc2ccc(C(=N)N)cc2)cc1`, the MIC was > 200 µg/mL (ATCC 13883; compound alone).
`Cc1cc(NS(=O)(=O)c2ccc(N)cc2)no1` has an MIC of 32 µg/mL (broth microdilution; ATCC 43816 acrAB knockout).
The MIC of `CO/N=C(\C(=O)N[C@@H]1C(=O)N2C(C(=O)O)=C(COC(C)=O)CS[C@H]12)c1csc(N)n1` is reported as < 0.5 µg/mL (ATCC 700603, Mueller Hinton broth; 37 °C).
The MIC of `Cc1cc(-c2cn[nH]c2-c2cccc(OCc3cccc(C#N)c3)c2)cc(C)n1` is reported as 1 µg/mL (CLSI broth microdilution; AR-0040).
With `CCO/N=C(\C(=O)N[C@@H]1C(=O)N2C(C(=O)[O-])=C(Sc3nc(-c4cc[n+](C)cc4)cs3)CS[C@H]12)c1nsc(NP(=O)(O)O)n1` the MIC was 400 µM (broth microdilution; clinical isolate, Mueller-Hinton broth; 24 h, 37 °C).
`[H]/N=C(/N)N[C@H]1[C@H](O)[C@@H](O)[C@H](O[C@@H]2O[C@@H](C)[C@](O)(C=O)[C@H]2O[C@@H]2O[C@@H](CO)[C@H](O)[C@@H](O)[C@@H]2NC)[C@@H](N/C(N)=N\[H])[C@@H]1O` gave an MIC of > 512 µg/mL (ALE CTX-M-15, Mueller Hinton broth; overnight, 37 °C).
